Experimental data of several laboratories.
Protocols differ between the studies behind these lines.
4'-phosphopantetheinyl transferase PptT: 4'-phosphopantetheinyl transferase PptT (Mycobacterium tuberculosis, UniProt O33336)
Sequence of UniProt O33336 (whole entry, looked up): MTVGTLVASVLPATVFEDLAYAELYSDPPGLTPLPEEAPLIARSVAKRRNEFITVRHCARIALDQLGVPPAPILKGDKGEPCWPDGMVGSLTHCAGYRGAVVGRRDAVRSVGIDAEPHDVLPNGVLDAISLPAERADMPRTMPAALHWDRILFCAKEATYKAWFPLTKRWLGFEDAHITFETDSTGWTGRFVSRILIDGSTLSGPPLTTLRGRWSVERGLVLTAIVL
Sequence of UniProt Q9UBE8 (whole entry, looked up): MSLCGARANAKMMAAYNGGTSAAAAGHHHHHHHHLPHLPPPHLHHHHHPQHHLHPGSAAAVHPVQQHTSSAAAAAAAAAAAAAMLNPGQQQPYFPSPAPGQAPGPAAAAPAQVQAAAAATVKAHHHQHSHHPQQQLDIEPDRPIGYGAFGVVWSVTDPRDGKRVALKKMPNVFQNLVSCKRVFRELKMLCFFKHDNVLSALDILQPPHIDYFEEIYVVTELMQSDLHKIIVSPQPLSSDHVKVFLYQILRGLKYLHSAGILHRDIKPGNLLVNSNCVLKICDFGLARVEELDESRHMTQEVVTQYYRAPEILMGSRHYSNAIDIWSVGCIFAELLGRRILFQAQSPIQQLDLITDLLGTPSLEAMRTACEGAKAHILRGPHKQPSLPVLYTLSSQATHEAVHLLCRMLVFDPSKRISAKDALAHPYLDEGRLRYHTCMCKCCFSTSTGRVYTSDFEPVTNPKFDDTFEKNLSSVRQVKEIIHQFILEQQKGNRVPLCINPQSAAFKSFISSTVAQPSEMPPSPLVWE
Sequence of UniProt Q9H093 (whole entry, looked up): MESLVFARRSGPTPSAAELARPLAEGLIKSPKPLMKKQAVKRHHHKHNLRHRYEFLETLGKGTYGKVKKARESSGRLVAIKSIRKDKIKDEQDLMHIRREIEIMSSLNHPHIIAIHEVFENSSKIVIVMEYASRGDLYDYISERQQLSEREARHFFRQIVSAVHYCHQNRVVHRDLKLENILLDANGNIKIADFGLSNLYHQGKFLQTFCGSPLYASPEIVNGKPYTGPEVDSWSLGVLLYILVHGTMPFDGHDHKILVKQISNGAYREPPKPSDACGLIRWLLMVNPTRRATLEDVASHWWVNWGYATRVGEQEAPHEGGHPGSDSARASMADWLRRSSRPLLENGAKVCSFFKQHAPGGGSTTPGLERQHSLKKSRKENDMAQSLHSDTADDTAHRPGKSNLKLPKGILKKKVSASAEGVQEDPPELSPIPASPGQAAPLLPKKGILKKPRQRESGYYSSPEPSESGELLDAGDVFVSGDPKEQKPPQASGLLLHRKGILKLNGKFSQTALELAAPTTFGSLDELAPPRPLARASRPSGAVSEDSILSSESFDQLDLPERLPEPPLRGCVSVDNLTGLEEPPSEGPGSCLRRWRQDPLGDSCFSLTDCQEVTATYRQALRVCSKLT
Sequence of UniProt Q96Q40 (whole entry, looked up): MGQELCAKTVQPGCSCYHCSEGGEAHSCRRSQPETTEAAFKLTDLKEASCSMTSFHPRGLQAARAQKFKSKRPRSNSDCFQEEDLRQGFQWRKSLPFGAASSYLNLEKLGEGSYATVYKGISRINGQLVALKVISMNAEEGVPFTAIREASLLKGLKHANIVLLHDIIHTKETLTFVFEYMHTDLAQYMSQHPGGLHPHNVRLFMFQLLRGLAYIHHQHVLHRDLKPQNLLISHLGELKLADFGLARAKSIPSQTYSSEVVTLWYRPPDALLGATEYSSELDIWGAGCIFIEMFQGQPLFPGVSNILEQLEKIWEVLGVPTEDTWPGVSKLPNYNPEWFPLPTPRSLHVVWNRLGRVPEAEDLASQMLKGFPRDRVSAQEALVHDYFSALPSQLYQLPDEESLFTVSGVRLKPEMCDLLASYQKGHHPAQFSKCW
Sequence of UniProt Q8IVW4 (whole entry, looked up): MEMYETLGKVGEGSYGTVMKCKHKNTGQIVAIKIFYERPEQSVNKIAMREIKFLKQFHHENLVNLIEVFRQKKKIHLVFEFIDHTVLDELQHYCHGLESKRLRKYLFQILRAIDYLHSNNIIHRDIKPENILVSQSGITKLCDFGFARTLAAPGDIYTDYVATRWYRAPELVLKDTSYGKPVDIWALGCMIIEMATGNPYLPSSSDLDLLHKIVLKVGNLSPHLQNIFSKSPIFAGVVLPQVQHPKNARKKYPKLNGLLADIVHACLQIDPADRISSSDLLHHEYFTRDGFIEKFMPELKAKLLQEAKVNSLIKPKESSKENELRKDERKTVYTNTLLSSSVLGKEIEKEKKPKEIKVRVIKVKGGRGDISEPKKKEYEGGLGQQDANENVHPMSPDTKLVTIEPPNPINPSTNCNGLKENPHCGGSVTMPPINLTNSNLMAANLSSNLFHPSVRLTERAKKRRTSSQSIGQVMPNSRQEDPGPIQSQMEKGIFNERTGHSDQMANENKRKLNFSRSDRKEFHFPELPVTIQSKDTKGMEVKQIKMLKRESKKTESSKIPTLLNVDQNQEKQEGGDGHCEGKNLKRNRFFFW
Sequence of UniProt Q9NUW8 (whole entry, looked up): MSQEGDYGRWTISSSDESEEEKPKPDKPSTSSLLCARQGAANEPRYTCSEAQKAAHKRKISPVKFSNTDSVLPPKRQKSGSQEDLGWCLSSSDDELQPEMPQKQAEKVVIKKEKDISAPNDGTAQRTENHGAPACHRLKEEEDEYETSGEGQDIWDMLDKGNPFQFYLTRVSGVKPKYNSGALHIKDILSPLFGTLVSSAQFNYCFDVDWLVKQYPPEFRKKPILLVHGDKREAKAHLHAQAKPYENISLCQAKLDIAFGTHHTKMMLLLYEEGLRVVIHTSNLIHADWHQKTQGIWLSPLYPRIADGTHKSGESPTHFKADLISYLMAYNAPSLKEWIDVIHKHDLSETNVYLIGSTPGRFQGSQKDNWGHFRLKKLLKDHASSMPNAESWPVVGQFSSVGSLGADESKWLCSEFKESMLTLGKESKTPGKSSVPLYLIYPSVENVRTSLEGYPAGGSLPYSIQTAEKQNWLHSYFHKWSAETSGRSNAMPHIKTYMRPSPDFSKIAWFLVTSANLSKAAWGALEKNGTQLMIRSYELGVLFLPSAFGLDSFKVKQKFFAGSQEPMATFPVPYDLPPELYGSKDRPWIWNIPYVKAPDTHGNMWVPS

| SMILES | target or system | test | test system | conditions | endpoint | result |
| --- | --- | --- | --- | --- | --- | --- |
| O=c1cc(CSc2ccc(N=Cc3cccc(O)c3)cc2)occ1O |  | ABTS scavenging, absorbance |  |  | IC50 | 16.6 µM |
| O=C1C(NCCc2ccc(O)cc2)=CC2=NCCc3c[nH]c1c32 | Babesia duncani | parasite growth, SYBR Green |  | 60 h, blood stage | IC50 | 0.192 µM |
| COC(=O)c1cc(-c2cccc(NC(=S)Nc3ccc(F)cc3F)c2)on1 | Acinetobacter baumannii | microbial growth, broth dilution | BAA1605 |  | MIC | > 64 µg/mL |
| O=C(NNc1cccc(Cl)c1)c1nnc(C23CC4CC(CC(C4)C2)C3)o1 | Pyricularia grisea | microbial growth |  |  | EC50 | > 50 µg/mL |
| Cc1sc2c(c1C)C(c1ccc(Cl)cc1)=N[C@H](CC(=O)OC(C)(C)C)c1nnc(C)n1-2 | OCI-Ly1 | cell growth or viability, ATP luminescence |  | 1 µM, 5 days | viability | 168% |
| O=C(NNc1ccc(Cl)c(Cl)c1)c1nnc(CC23CC4CC(CC(C4)C2)C3)o1 | Pyricularia grisea | microbial growth |  | 50 µg/mL | inhibition | 75.1% |
| NCCCC[C@H]1NC(=O)[C@H](Cc2ccccc2)NC(=O)[C@@H](Cc2ccccc2)NC(=O)[C@H](Cc2ccccc2)NC(=O)[C@@H](CCCN)NC(=O)[C@H](CCCN)NC1=O | Balamuthia mandrillaris | parasite growth, ATP luminescence |  |  | IC90 | > 20 µM |
| COC(=O)c1cc(-c2cccc(NC(=O)Nc3cccc(C#N)c3)c2)on1 | Escherichia coli | microbial growth, broth dilution | ATCC25922 |  | MIC | > 64 µg/mL |
| COc1ccc(C=Nc2ccc(SCc3cc(=O)c(O)co3)cc2)cc1 |  | ABTS scavenging, absorbance |  |  | IC50 | 24.3 µM |
| COC1=CC2=[N+](C)CCc3c[nH]c(c32)C1=O | Babesia duncani | parasite growth, SYBR Green |  | 60 h, blood stage | IC50 | 10.2 µM |
| COc1cccc(C=Nc2ccc(SCc3cc(=O)c(O)co3)cc2)c1 |  | ABTS scavenging, absorbance |  |  | IC50 | 21.3 µM |
| NCCCC[C@@H]1NC(=O)[C@@H](CCCCN)NC(=O)[C@H](CO)NC(=O)[C@H](Cc2c[nH]c3ccccc23)NC(=O)[C@@H](Cc2c[nH]c3ccccc23)NC(=O)[C@H](Cc2ccccc2)NC(=O)[C@@H](CCCCN)NC1=O | Balamuthia mandrillaris | parasite growth, ATP luminescence |  |  | IC90 | > 16 µg/mL |
| CCc1ccccc1C=Nc1ccc(SCc2cc(=O)c(O)co2)cc1 |  | ABTS scavenging, absorbance |  |  | IC50 | 35.6 µM |
| CN(C)c1ccc(C(=O)NCCCCCCC(=O)NO)cc1 | HBL1 | cell growth or viability, ATP luminescence |  | 0.5 µM, 5 days | viability | 37.3% |
| Cc1nn(C)cc1-c1nc2c(N3CCN(Cc4ccc(Cl)cc4)CC3)c(Cl)cnc2[nH]1 | CDKL3 (Homo sapiens, UniProt Q8IVW4) | binding, competition with immobilised ligand |  | 1 µM | remaining binding | 100% |
| COC(=O)c1cc(-c2cccc(NC(=O)Nc3ccc(C)c(Cl)c3)c2)on1 | Escherichia coli | microbial growth, broth dilution | ATCC25922 |  | MIC | > 64 µg/mL |
| CC(c1cccnc1)n1c(=S)[nH]c2cc(CO)c(Cl)cc2c1=O (stereo not shown) | 4'-phosphopantetheinyl transferase PptT | enzyme activity, inhibitor, FP |  |  | IC50 | 7.51 µM |
| O=C(NNc1ccc(Cl)c(Cl)c1)c1nnc(C23CC4CC(CC(C4)C2)C3)o1 | Pyricularia grisea | microbial growth |  |  | EC50 | > 50 µg/mL |
| COc1ncccc1-c1cnn2ccc(N3CCN(C(=O)OC(C)C)CC3)nc12 | CDK15 (Homo sapiens, UniProt Q96Q40) | binding, competition with immobilised ligand |  | 1 µM | remaining binding | 100% |
| CN1CCCC(Cn2c(=S)[nH]c3ccc(Cl)cc3c2=O)C1 (stereo not shown) | 4'-phosphopantetheinyl transferase PptT | enzyme activity, inhibitor, FP |  |  | IC50 | 14.4 µM |
| C[C@@H](O)[C@@H]1NC(=O)[C@H](Cc2ccccc2)NC(=O)[C@@H](Cc2ccccc2)NC(=O)[C@H]([C@@H](C)O)NC(=O)[C@@H](CCCN)NC(=O)[C@H](CCCN)NC(=O)[C@@H](CCCCN)NC1=O | Balamuthia mandrillaris | parasite growth, ATP luminescence |  |  | IC90 | > 16 µg/mL |
| N.N.[Cl][Pt][Cl] | SU-DHL-5 | cell growth or viability, ATP luminescence |  | 72 h | IC50 | 0.76 µM |

| SMILES | target or system | test | test system | conditions | endpoint | result |
| --- | --- | --- | --- | --- | --- | --- |
| O=C(NNc1cccc(Cl)c1)c1nnc(CC23CC4CC(CC(C4)C2)C3)o1 | Fusarium oxysporum | microbial growth |  | 50 µg/mL | inhibition | 56.3% |
| CC(C)[C@@H]1NC(=O)[C@@H](Cc2ccccc2)NC(=O)[C@H](Cc2ccccc2)NC(=O)[C@@H]([C@H](C)O)NC(=O)[C@H]([C@@H](C)O)NC(=O)[C@@H](CCCNC(=N)N)NC1=O | Balamuthia mandrillaris | parasite growth, ATP luminescence |  |  | IC90 | > 16 µg/mL |
| O=c1cc(CSc2ccc(N=Cc3ccc([N+](=O)[O-])cc3)cc2)occ1O |  | ABTS scavenging, absorbance |  |  | IC50 | 56.1 µM |
| [2H]c1c([2H])c([C@]2([2H])CCCN2C(=O)C(C)(C)Oc2ccc3cn[nH]c3c2)c([2H])c([2H])c1C([2H])([2H])[2H] | NLK (Homo sapiens, UniProt Q9UBE8) | binding, competition with immobilised ligand |  | 1 µM | remaining binding | 81% |
| O=C(NNc1ccc(Cl)cc1)c1nnc(C23CC4CC(CC(C4)C2)C3)o1 | Pyricularia grisea | microbial growth |  | 50 µg/mL | inhibition | 100% |
| Nc1ncc(-c2nc(N3CCOCC3)nc(N3CCOCC3)n2)c(C(F)F)n1 | NUAK2 (Homo sapiens, UniProt Q9H093) | binding, competition with immobilised ligand |  | 10 µM | remaining binding | 50% |
| O=C1c2[nH]cc3c2C(=NCC3)c2c(-c3ccc(O)cc3)c[nH]c21 | Babesia duncani | parasite growth, SYBR Green |  | 60 h, blood stage | IC50 | 0.146 µM |
| COc1ccc(Nc2nn3c(-c4ccccc4)ccnc3c2C(=O)Nc2ccc(Cl)cc2)cc1 | A549 | cell growth or viability, MTT |  | 25 µg/mL, 48 h, serum-free | viability | 49.8% |
| CC(C)[C@H]1NC(=O)[C@H](Cc2ccccc2)NC(=O)CNC(=O)[C@@H](Cc2ccccc2)NC(=O)[C@H](CCCCN)NC(=O)[C@@H](CCCNC(=N)N)NC1=O | Balamuthia mandrillaris | parasite growth, ATP luminescence |  |  | IC90 | > 16 µg/mL |
| COc1ccc(Nc2nn3c(-c4ccccc4)ccnc3c2C(=O)Nc2ccccc2)cc1 | Caco-2 | cell growth or viability, MTT |  | 100 µg/mL, 48 h, serum-free | viability | 27.1% |
| CS(=O)(=O)c1ccc2nc(-c3ccccc3)c(Nc3ccc(C(=O)O)cc3)n2c1 | TDP1 (Homo sapiens, UniProt Q9NUW8) | enzyme activity, inhibitor, fluorescence |  | lysate | IC50 | 38.4 µM |
| COC(=O)c1cc(-c2cccc(NC(=O)Nc3ccc(Cl)cc3)c2)on1 | Escherichia coli | microbial growth, broth dilution | ATCC25922 |  | MIC | > 64 µg/mL |
| CC(C)C[C@H]1NC(=O)[C@H]([C@@H](C)O)NC(=O)[C@@H](CCCN)NC(=O)[C@H](CCCNC(=N)N)NC(=O)[C@@H](Cc2ccccc2)NC1=O | Balamuthia mandrillaris | parasite growth, ATP luminescence |  |  | IC90 | > 16 µg/mL |
| O=C(NNc1cc(F)ccc1F)c1nnc(C23CC4CC(CC(C4)C2)C3)o1 | Pyricularia grisea | microbial growth |  | 50 µg/mL | inhibition | 71.6% |
| CC(C)[C@H]1NC(=O)[C@@H](C)NC(=O)[C@H](Cc2c[nH]c3ccccc23)NC(=O)[C@@H](CCCN)NC(=O)[C@H]([C@@H](C)O)NC(=O)[C@@H](CCCN)NC(=O)[C@H](Cc2c[nH]c3ccccc23)NC(=O)[C@@H](C)NC1=O | Balamuthia mandrillaris | parasite growth, ATP luminescence |  |  | IC50 | > 16 µg/mL |
| O=C1C(NCCc2c[nH]c3ccccc23)=CC2=NCCc3c[nH]c1c32 | Babesia duncani | parasite growth, SYBR Green |  | 60 h, blood stage | IC50 | 0.764 µM |
| O=C(NCCc1ncc(C(F)(F)F)cc1Cl)c1ccccc1C(F)(F)F | Pyricularia grisea | microbial growth |  |  | EC50 | > 50 µg/mL |
| CCOC(=O)c1nnn(-c2cccc(NC(=O)Nc3ccc(Cl)c(Cl)c3)c2)c1C | Acinetobacter baumannii | microbial growth, broth dilution | BAA1605 |  | MIC | > 64 µg/mL |
| O=C(NNc1ccc(F)c(F)c1)c1nnc(CC23CC4CC(CC(C4)C2)C3)o1 | Pyricularia grisea | microbial growth |  |  | EC50 | > 50 µg/mL |
| CC(C)[C@@H]1NC(=O)[C@@H](CCCN)NC(=O)[C@H]([C@@H](C)O)NC(=O)[C@H](Cc2ccccc2)NC(=O)[C@@H](Cc2ccccc2)NC(=O)[C@H](Cc2ccccc2)NC(=O)[C@@H](CCCN)NC1=O | Balamuthia mandrillaris | parasite growth, ATP luminescence |  |  | IC50 | > 16 µg/mL |
| COC(=O)c1cc(-c2cccc(NC(=O)Nc3ccc(OC)cc3)c2)on1 | Acinetobacter baumannii | microbial growth, broth dilution | BAA1605 |  | MIC | > 64 µg/mL |
